# Experimental data collected from several papers.
# Lines come from different studies, so protocols differ.
SMILES,target or system,test,test system,conditions,scale,measurement,value
CCN(CC)CC(=O)Nc1cccc(-n2cc(-c3ccc4ccc(-c5cn(-c6cccc(NC(=O)CN(CC)CC)c6)nn5)cc4c3)nn2)c1,RCC4,"PCR angiogenesis array, measured: TIMP2",,"5 x IC50, 4 h, normoxia",reference: untreated,fold regulation,-1.25 fold
Nc1ncc(-c2cc(-c3cnn(CC(F)(F)F)c3)ncc2F)nc1C(=O)NC1CNCC(F)C1 (stereo not shown),ROS1,KINOMEscan,,1 µM,reference: DMSO control,remaining binding,26%
Cc1ncsc1-c1ccc(C(C)NC(=O)C2CC(O)CN2C(=O)C(NC(=O)CCCCCCCCCCN2CCCC(Nc3ncc(Cl)c(Nc4ccccc4S(=O)(=O)C(C)C)n3)C2)C(C)(C)C)cc1 (stereo not shown),22Rv1,"RNA-seq, measured: SCAND2P mRNA",,concentration not given,reference: DMSO,log2 fold change,-1.05
CNS(=O)(=O)Nc1nccc(Cc2c(C)c3ccc(Oc4ncccc4F)cc3oc2=O)c1F,HMC-1.2,"cell viability, CellTiter-Glo",,7 days,,IC50,24.2 nM
CN1CCCNC(=O)c2cccc(c2)C(=O)NCCCN(C)CCCNc2cccc3c2C(=O)c2cccc(c2C3=O)NCCC1,SAS,"RNA-Seq, measured: TUBGCP5 mRNA",,"1 µM, 6 h",reference: untreated cells,log2 fold change,-1.14
C=C(NC(=O)c1csc(-c2nc3c(cc2O)-c2nc(cs2)C(=O)NC(C(C)O)C(=O)NC(=C(C)OC)c2nc(cs2)C(=O)NC2c4nc(cs4)C(=O)NC(COC(=O)c4c5c6c(cccc6n4O)COC(=O)C(OC4CC(C)(O)C(N(C)C)C(C)O4)C2OC5)c2nc-3cs2)n1)C(N)=O (stereo not shown),Streptococcus pneumoniae,,"-4, immunocompromised mice, lung","16 mg/kg/day thrice daily, 24 h post-dose",,lung bacterial load,4.16 log10 CFU/lung
C=CC(=O)N1[C@@H](c2ccc3c(c2)OCO3)c2[nH]c3ccccc3c2C[C@H]1C(=O)N1CCN(C)CC1,human cyclin E1 wild type-3xFLAG:CDK2,"co-IP with TMT proteomics, measured: NPM1",,"concentration not given, P06748",reference: wild type DMSO,relative co-enrichment,93%
COC1CN([C@H]2CC[C@H]([C@@]3(C)Oc4c(Cl)cc(C(=O)NCc5c(SC)cc(C)[nH]c5=O)c(C)c4O3)CC2)C1,,"RNA-seq, measured: C17orf99","human, whole blood","dose not given, 24 h",reference: pretreatment baseline,log2 fold change,2.08
C=CC(=O)Nc1cccc(Cn2ncc3cnc(Nc4cnn(CCOC)c4)nc32)c1,CSF1R human,"binding, KINOMEscan",,100 nM,lower = stronger binding,percent of control,44%
Cn1ncc2cc(-c3cncc(Cl)c3N3CCC4(CCNC4=O)CC3)ccc21,LS174T,"gene expression, microarray, measured: ABCA1 mRNA",,"concentration not given, 24 h",reference: untreated cells,log2 fold change,2.6
